Experimental data pooled from the literature.
Several values in a cell are separate wells, animals, samples, runs or records. ± gives the spread as reported.
UniProt Q9UM07, sequence (whole entry, looked up): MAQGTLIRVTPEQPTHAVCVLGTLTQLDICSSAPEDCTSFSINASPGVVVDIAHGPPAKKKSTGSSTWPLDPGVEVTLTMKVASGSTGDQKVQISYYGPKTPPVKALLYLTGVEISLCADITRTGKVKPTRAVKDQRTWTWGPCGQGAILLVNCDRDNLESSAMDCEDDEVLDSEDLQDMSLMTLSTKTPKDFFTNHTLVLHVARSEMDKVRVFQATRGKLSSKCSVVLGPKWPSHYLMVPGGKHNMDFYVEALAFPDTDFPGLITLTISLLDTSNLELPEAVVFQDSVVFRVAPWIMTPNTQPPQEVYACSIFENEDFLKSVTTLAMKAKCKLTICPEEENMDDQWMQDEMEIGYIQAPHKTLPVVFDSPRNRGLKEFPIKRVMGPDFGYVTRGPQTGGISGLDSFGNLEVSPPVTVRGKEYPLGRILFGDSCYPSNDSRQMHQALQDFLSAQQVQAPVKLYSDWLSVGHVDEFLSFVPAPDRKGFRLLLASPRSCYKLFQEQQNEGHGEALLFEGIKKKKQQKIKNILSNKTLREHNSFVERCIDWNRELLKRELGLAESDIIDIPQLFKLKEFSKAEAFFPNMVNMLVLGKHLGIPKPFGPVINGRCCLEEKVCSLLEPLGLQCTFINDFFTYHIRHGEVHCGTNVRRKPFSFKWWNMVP
UniProt P33533, sequence (whole entry, looked up): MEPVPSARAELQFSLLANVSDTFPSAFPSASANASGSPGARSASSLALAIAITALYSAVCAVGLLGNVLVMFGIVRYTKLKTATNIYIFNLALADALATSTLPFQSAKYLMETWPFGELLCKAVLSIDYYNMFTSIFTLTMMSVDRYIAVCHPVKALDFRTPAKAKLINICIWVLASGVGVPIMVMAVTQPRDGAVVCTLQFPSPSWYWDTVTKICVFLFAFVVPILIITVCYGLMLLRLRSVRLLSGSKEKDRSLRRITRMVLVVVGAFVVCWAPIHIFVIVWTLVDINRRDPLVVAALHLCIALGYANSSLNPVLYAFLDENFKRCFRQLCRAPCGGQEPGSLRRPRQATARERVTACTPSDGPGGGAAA
UniProt P11362, sequence (whole entry, unmodified, looked up): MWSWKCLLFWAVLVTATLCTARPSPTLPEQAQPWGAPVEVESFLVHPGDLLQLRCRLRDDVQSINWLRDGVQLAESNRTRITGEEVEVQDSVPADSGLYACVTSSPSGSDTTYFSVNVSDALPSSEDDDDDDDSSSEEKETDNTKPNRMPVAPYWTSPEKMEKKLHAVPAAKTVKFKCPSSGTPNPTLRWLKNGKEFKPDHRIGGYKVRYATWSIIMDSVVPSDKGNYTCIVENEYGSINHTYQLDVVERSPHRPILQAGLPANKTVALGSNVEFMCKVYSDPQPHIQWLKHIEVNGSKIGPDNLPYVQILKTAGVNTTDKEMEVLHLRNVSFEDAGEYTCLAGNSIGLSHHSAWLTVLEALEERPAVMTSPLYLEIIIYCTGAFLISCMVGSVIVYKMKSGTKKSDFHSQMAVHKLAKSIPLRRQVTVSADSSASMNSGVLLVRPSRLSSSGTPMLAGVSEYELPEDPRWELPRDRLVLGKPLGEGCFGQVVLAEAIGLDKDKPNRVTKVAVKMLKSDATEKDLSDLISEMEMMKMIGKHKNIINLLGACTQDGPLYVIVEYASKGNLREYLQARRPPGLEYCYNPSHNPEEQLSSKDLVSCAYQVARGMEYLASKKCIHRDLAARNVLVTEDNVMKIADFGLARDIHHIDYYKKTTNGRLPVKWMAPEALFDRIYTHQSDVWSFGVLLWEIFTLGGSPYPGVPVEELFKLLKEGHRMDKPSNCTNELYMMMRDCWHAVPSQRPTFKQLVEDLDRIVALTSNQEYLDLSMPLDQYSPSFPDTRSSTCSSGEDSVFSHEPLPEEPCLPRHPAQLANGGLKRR
UniProt Q9GZQ4, sequence (whole entry, looked up): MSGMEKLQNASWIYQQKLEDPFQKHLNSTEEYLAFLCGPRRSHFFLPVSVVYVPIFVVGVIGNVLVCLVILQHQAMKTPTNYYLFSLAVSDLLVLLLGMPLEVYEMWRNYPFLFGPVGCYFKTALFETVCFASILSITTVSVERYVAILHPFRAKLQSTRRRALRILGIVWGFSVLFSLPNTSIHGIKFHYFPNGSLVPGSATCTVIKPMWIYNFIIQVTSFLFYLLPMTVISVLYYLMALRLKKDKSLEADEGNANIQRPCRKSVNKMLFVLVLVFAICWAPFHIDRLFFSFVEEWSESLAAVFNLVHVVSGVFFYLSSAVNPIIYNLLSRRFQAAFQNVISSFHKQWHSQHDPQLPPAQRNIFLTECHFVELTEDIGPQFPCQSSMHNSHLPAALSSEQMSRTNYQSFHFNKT
UniProt Q8C167, sequence (whole entry, looked up): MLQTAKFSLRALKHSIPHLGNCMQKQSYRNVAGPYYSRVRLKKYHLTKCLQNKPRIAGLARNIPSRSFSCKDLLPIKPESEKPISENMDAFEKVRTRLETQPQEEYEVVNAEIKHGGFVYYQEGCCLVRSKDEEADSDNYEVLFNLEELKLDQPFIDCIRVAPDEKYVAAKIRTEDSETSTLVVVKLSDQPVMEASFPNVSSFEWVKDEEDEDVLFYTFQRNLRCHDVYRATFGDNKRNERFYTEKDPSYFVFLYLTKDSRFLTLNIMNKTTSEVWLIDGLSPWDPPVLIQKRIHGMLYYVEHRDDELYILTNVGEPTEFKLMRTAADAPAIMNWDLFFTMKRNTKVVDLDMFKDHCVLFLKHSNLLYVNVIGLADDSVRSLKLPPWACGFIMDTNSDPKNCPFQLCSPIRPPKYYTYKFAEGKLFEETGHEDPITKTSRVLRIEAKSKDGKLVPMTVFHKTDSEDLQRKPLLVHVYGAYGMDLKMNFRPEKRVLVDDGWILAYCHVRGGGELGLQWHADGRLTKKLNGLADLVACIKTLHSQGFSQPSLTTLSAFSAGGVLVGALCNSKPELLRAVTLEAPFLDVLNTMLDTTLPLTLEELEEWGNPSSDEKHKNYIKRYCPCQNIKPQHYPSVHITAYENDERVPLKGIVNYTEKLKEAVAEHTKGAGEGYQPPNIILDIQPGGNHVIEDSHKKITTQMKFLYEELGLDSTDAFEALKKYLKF
UniProt Q92564, sequence (whole entry, looked up): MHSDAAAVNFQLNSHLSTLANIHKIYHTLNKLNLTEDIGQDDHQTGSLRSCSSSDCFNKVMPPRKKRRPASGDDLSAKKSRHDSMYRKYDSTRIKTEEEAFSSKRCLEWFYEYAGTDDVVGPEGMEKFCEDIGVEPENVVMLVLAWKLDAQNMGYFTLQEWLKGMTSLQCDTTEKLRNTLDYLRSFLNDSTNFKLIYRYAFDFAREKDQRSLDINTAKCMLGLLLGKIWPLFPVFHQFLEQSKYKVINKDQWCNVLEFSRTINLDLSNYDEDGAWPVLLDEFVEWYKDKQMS
UniProt P53667, sequence (whole entry, looked up): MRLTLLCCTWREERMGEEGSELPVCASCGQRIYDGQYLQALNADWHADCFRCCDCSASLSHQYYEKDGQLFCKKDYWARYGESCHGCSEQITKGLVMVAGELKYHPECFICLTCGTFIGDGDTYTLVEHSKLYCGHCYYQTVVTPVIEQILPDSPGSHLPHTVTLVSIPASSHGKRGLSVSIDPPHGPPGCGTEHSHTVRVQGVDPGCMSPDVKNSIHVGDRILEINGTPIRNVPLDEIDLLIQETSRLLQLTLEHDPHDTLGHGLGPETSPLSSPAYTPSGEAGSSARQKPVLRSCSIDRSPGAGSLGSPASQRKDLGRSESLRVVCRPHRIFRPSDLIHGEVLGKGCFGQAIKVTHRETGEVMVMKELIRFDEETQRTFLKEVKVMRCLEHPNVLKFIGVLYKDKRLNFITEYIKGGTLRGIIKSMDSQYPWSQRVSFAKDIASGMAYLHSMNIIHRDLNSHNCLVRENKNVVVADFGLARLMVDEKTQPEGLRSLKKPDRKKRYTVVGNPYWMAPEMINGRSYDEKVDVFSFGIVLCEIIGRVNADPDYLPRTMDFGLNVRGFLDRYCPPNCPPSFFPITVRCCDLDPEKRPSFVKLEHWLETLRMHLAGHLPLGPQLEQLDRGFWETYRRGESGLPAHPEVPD
UniProt Q15418, sequence (whole entry, looked up): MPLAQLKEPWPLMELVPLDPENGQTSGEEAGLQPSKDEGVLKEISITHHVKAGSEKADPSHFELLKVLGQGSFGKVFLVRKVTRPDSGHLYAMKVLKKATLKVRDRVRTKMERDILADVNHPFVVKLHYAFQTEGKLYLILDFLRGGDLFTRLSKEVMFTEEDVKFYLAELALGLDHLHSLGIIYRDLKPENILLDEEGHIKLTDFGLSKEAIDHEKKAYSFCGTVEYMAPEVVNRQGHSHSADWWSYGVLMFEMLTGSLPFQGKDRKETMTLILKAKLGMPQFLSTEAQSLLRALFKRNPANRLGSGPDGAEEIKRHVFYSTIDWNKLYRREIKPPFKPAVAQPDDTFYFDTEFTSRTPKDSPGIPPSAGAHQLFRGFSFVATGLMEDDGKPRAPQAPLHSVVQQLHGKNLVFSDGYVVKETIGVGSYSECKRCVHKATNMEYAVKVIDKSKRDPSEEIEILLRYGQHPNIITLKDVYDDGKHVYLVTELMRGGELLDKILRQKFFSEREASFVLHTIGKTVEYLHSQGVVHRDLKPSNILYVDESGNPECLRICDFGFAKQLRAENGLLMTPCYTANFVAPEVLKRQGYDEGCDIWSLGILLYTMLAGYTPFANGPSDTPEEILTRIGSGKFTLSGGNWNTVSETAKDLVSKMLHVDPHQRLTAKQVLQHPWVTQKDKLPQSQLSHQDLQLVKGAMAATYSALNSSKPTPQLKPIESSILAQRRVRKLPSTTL

O=C1NC(=O)c2c1c1cc(F)c[n+]3c1c1c2c2cc(O)ccc2[n]1[Ru-4]312([N]=C=S)[S+]3CC[S+]1CC[S+]2CC3 (stereo not drawn)  remaining activity (LIM domain kinase 1 (LIMK1, Homo sapiens, UniProt P53667); enzyme activity; 100 nM, human enzyme, together with: 10 µM ATP; baseline: untreated): 86%
CN1CC[C@@]23c4c5ccc(O)c4C[C@@H]2[C@H](O)C=C[C@@H]3[C@@H]1C5  Emax (Delta-type opioid receptor (OPRD1, Homo sapiens, UniProt P41143); receptor activation, agonist, cell-based): < 10%
OC[C@H]1CNCCN1C[C@@H]1CCCN1C[C@@H](Cc1ccc2ccccc2c1)N1CCN(CCC23CC4CC(CC(C4)C2)C3)[C@H](Cc2ccc(O)cc2)C1  remaining binding (Delta-type opioid receptor (Oprd1, Rattus norvegicus, UniProt P33533); radioligand binding; rat brain membranes; 500 nM, pH 7.5, 25 °C, together with: 2 nM [3H]DPDPE): 91.1%
CC(C)CC(O)(CC(C)C)c1cn(C(=O)N2CCCC2)nn1  ratio of ratios (Prolyl endopeptidase-like (Prepl, Mus musculus, UniProt Q8C167); enzyme activity, inhibitor, refers to: Prepl; mouse, brain; i.p., 0.8 mg/kg, 4 h, protein level; baseline: vehicle): 0.57
CS(C)(=O)=Nc1ccc(-c2ccc(-c3nc4cc(O[C@@H]5CO[C@H]6[C@@H]5OC[C@H]6O)[nH]c4cc3F)cc2)cc1  inhibition (Neuromedin-U receptor 2 (NMUR2, Homo sapiens, UniProt Q9GZQ4); ligand displacement, radioligand; 10 µM): 0%
CN(C)[C@H]1C[C@@]23CC[C@@]4(O2)C(=CC[C@]2(C)[C@@H](c5ccc6ccncc6c5)CC[C@H]24)C=C3[C@@H](O)[C@@H]1O  inhibition (STE20-like serine/threonine-protein kinase (SLK, Homo sapiens, UniProt Q9H2G2); ATP probe labelling, inhibitor, KiNativ profiling; 0.1 µM): 11.4%
C#CCCCCOc1ccc2c(c1)CCCN2C(=O)CCl  reactivity ratio (DCN1-like protein 4 (Homo sapiens, UniProt Q92564); mass spectrometry profiling, refers to: DCUN1D4; H460 cell lysate; 100 µM over 10 µM, UniProt Q92564; baseline: high over low concentration): 1.28
CC(C)[C@H]1NC(=O)C[C@H]2/C=C/CCSSC[C@@H](NC1=O)C(=O)N[C@H](Cc1cccc3ccccc13)C(=O)NCC(=O)O2  inhibition (Fibroblast growth factor receptor 1 (FGFR1, Homo sapiens, UniProt P11362, V561M); enzyme activity, inhibitor; 10 µM): -5.9%
CCCCC/C=C\C/C=C\C/C=C\C/C=C\CCCC(=O)NCCc1ccc(O)c(O)c1  Hill coefficient (Transient receptor potential cation channel subfamily V member 1 (Trpv1, Mus musculus, UniProt Q704Y3, E571S); ion current, agonist, whole-cell patch clamp; E571S): 1.91 ± 0.21
C#Cc1cc(/C=N/NC(=O)CCl)c2nccn2c1  labelling concentration (Ribosomal protein S6 kinase alpha-1 (RPS6KA1, Homo sapiens, UniProt Q15418); cysteine labelling, gel-based live-cell labelling; HEK-293T; strong ligand-dependent labelling): 0.1 to 0.5 µM
CC[C@H](C)[C@@H]1NC(=O)[C@H](CC(N)=O)NC(=O)[C@@H]2CCCN2C(=O)[C@@H](NC(=O)[C@H](CC(N)=O)NC(=O)CNCCC(N)=O)COC(=O)[C@H](CCSC)NC(=O)[C@H](Cc2c[nH]c3ccccc23)NC(=O)[C@H](CCC(N)=O)NC(=O)CNC(=O)[C@H](Cc2ccccc2)NC1=O  potency ratio (Fsr quorum sensing protein (Enterococcus faecalis, UniProt A0ACD6TCR9); reporter gene, agonist; baseline: compound over native peptide): ~2 fold
N[C@H](C(=O)N1CCCC1)C1CCN(c2nccc3c(-c4ncc(Cl)cc4Cl)cccc23)CC1  kcat (Protein-arginine deiminase type-4 (PADI4, Homo sapiens, UniProt Q9UM07); enzyme activity; 0.01573 µM, low-affinity site, together with: Ca2+ 0.25 mM): 0.668 s⁻¹ and 0.72 s⁻¹

For quick reference, copied from above:
CN1CC[C@@]23c4c5ccc(O)c4C[C@@H]2[C@H](O)C=C[C@@H]3[C@@H]1C5  Emax (Delta-type opioid receptor (OPRD1, Homo sapiens, UniProt P41143); receptor activation, agonist, cell-based): < 10%
